Measured values collected from several papers.
Each numbered part is a random draw from the data of one study; scales do not carry over between parts.

Study 1
Target: Transcription factor Sp1 (SP1, Homo sapiens, UniProt P08047, residues 1-785, full length assumed)
Chain of UniProt P08047 (whole entry, looked up): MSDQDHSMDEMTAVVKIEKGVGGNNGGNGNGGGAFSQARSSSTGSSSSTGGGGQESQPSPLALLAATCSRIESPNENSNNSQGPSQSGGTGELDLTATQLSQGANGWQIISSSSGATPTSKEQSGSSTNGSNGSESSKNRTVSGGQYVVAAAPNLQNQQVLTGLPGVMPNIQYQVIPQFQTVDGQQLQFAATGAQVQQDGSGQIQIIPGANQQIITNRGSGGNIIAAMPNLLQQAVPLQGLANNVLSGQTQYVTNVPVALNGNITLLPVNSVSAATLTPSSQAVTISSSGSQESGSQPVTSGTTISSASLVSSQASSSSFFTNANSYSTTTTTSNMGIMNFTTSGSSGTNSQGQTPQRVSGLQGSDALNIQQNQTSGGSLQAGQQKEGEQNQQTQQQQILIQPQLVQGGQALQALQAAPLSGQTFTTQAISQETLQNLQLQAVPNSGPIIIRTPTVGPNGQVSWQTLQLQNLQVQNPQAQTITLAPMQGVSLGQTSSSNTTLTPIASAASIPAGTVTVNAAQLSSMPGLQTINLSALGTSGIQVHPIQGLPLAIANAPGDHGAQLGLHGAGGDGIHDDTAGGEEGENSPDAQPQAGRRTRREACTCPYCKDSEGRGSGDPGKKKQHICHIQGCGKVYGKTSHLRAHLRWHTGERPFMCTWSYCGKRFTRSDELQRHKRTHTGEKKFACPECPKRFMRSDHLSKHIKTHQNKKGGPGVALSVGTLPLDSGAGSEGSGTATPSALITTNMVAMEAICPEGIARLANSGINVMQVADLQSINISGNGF
Technique: protein-binding microarray
Form: double-stranded DNA, one strand shown
Sample: in vitro
Tested at: not given
Notes: k-mer, scored over probes, only values ≥0.25
Direction: higher = stronger binding
Quantity: E-score
CCCCTTCA: 0.328
ACCACCCA: 0.314
CACCCCCC: 0.314
AAGGGGTA: 0.265
ACCCGCCC: 0.485
ACAACCCC: 0.303
GGGGGCGA: 0.273
GCGGGGAA: 0.265
ATGGGTGG: 0.325
CACGCCTC: 0.378
AGTGGGGA: 0.301
CAAAGGGG: 0.275
CCACCCTC: 0.329
CCCCCTCC: 0.377
CCCCACCG: 0.252
AGGGGTAG: 0.319
ACGTGTAT: 0.292
AATATATA: 0.285
AAATATGA: 0.268
CACCCACA: 0.301
CCCACACG: 0.253
CACATGTA: 0.293
GGGTGGGA: 0.474

Study 2
Target: Prothrombin, mature alpha-thrombin (F2, Homo sapiens, UniProt P00734)
Technique: aptamer microarray, sandwich
Form: DNA with 2'F-ANA
Sample: in vitro
Tested at: 200 nM
Notes: whole 15-mer aptamer, many near background
With: Cy3 exosite-II aptamer, 400 nM
Direction: higher = stronger binding
Quantity: mean fluorescence intensity
Sequence: GGTTGGTGTGGTTGG
2'F-ANA at 1 2 4 5 10 13 14: 43.5 a.u.
2'F-ANA at 5 6 7 11: 62.6 a.u.
2'F-ANA at 1 4 6 8 9 11 15: 95 a.u.
2'F-ANA at 1 3 4 5 7 9 10 11 12: 82.8 a.u.
2'F-ANA at 4 5 6 7 8 10 11 12 13 14: 46 a.u.
2'F-ANA at 5 6 8 11: 68.8 a.u.
2'F-ANA at 1 2 7 10 12 13 14: 49.3 a.u.
2'F-ANA at 2 3 4 7 9 10 13 14: 191 a.u.
2'F-ANA at 2 3 5 6 10 11 12 14 15: 49 a.u.
2'F-ANA at 4 5 7 8 11 12 13 14: 55.3 a.u.
2'F-ANA at 2 3 6 7 9 13: 511 a.u.
2'F-ANA at 1 6 7 8 14: 66.2 a.u.
2'F-ANA at 3 5 6 7 8 9 10 11 14 15: 58.4 a.u.
2'F-ANA at 1 3 5 6 10 14: 45.7 a.u.
2'F-ANA at 1 7 8 9 10 11 14 15: 58.8 a.u.
2'F-ANA at 1 6 8 12 13 15: 350 a.u.
2'F-ANA at 1 2 3 8 11 13: 215 a.u.
2'F-ANA at 2 3 4 5 7 9 10 15: 56.9 a.u.
2'F-ANA at 1 3 8 9 10 11 12 14: 57.5 a.u.
2'F-ANA at 4 5 6 7 11 14 15: 45.9 a.u.
2'F-ANA at 1 4 6 8 15: 152 a.u.
2'F-ANA at 1 2 7 11 12 14 15: 96.2 a.u.
2'F-ANA at 2 3 4 5 6 8 9 13 14: 65.5 a.u.
2'F-ANA at 1 2 3 4 5 6 7 8 12 14: 49.3 a.u.
2'F-ANA at 2 3 7 8 9 10 11 13: 345 a.u.

Study 3
Target: RNA binding protein fox-1 homolog 2, RRM domain, GST-SBP tag (RBFOX2, Homo sapiens, UniProt O43251-10, residues 100-194)
Technique: RNA Bind-n-Seq
Form: RNA
Sample: in vitro
Tested at: 365 nM
Notes: natural RNA segment, single round, ends assumed
Relative to: no-protein control
Direction: higher = stronger binding
Quantity: RBNS enrichment (R)
Shared flanks, not repeated: GGGAGUUCUACAGUCCGACGAUC … UGGAAUUCUCGGGUGCCAA
Residues (chain): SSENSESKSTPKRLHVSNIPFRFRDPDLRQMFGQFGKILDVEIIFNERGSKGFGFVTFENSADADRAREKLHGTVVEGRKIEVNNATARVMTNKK
CAUGUGUCAGAUCUGCAUGCAUUGCUUGCAUUUUUCUGGUAUCUGAAUGUUGGUUCCUUGUUCCAGGAAUUCAACAUUAAUUUCCAAAAGUAUCAUGGGACUUGUGACAA: 0.878
UUUUCAAUAAUUCCUUUUUACUUCUAGGAAGUCUCAAAAGACCAUCUUAAAUUAUUAUAUGUUUGGACAAUUAGCAACAAGUCAGAUAGUUAGAAUCGAAGUUUUUCAAA: 0.648
GCCCUACCUUCUUUCUUGUUUGAUUGAUUUAGACACACUGGUGCUCUUACAGGUGGAGAAUGAGUGUUUGAUGGAUAUAGGUAAGCAUAUUUAUUUGACAGCUAUGAGGA: 1.78
UAGACCACUGUGGACUCUAAACUGCACUUGUCUCUCUCAUUUCCUUCAAAUAAUGAUCAAUGCUAUUUCAGUGAGCAAACUGUGAAAGGGGCUUUGGAAAGAGUAGGAGG: 0.676
UCAGGAUGAUCUCAGCACUGUGGGUCACCGUGCCGUGCCCAGGAUCCGAGGCCACCCUUCACGGCGAGCCUCGUGCUGGGCUCUUACCUGUGCUUUCUUGCUCUGGACUG: 0.341
ACAUAAGUUCCUUCUUCUGUAGUCCCCCCCAAAAAACCUCAGAAACCUCAUAAUUCUCACACAUGGCAUUUCUAAUGACAGGCAGGCCCUCUUCCAUGGUGCCGGCCAGA: 0.387
CCAGGACAGGAGCCAUGGCAUGUGGCACAGACCAAUCAGGGACCAGAAAAGAAUGAUGUCCCUUUCCUUGCCAUGUCCUUGAGCCUGUCAGUAAUGAACUGGCUGCAAGG: 3.74
ACUAUCUCAGUUACCAGAAUCUUGCUGCUCAAGUUUCGAGUGAUCGACAAUGGAUUUUUAACCAAGACAUUUUUGUUUUUGGAAAAAAAAAAAAAAUCAAAUGCAGUGAC: 0.6
CAGGCCUGGAGCGUUUGCUGUGCCAGGAGGCGGCAGCUCUUCUGGGCAGAGCCUGUCCCCGCCUUCCCUCACUCUUCCUCAUCCUGCUUCUCUUUUCCUCGCAGAUGAUA: 0.458
GGUGGGCAUUUUAAAUAAUUAUUUAAAAGACAGGAAGUAAGCGGUACCGAGCAAUGAAACUGAAGGUACAGCACUGGGCGUCUGGGGACCCCACGCUCUCCCAACGCCCA: 0.495
UAAUCAAGCACUAUGUUAAUACUGUAAUAUCAGAAUACUAUGUUGCAUUAUUUAAAAUGUUCAAAUUGAAUAGAUUAAAAAGUUUUUAAAUGCUAUUGCAUCAUAUAAUU: 0.735
AUAAGAGCUAAUCUCACCACUACAUGCCCAUCUAUGGAAGAUCUAACAGAAGCUUAGGGAACUAAGCAACAUAACAUAUCCAGCAAAAGGCAAGAUUCUAACCUAUACAG: 0.222

Study 4
Target: Centromere-binding protein 1, full length, His-tagged (CBF1, Saccharomyces cerevisiae, UniProt P17106, residues 1-351)
Chain of UniProt P17106 (whole entry, looked up): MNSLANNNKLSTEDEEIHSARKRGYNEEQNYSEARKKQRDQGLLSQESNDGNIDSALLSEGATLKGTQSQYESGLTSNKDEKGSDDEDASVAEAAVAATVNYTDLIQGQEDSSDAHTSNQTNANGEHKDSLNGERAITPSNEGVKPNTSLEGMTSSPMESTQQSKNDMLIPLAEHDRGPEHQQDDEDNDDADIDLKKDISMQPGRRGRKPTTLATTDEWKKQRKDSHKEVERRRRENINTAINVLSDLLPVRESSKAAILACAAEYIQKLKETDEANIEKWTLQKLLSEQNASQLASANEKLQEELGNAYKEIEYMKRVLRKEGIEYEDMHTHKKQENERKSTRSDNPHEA
Technique: competition protein-binding microarray
Form: double-stranded DNA, one strand shown
Sample: in vitro
Tested at: 2 µM
Notes: whole 60-bp probe, lowest competitor level
With: Pho4 competitor, 0.05 µM
Direction: higher = stronger binding
Quantity: fluorescence intensity
Shared flanks, not repeated: … GTCTTGATTCGCTTGACGCTGCTG
ACTGGTCAAAACCATCACGTGAAAAGGAAAACAAGA: 4170 a.u.
TACTGCGCCGGGTGATGCGTGACGGGTTTTTGGAAA: 94.2 a.u.
GTCTTGTCTCATTTTCACGTGTCGTTCCCCACTTCA: 785 a.u.
GTCTTGTCTCATTTTCACGTGCAATTCCCCACTTCA: 878 a.u.
TGCGCAACAACTTGAGATGTGGGTGTATGTCTAGAA: 69.3 a.u.
CGACGGAACCCAGGACACGTAATGAGGAAGTTTCAT: 83.2 a.u.
CCAAAGGTAACTTAGCGTGTGATATCACCGGAAGAG: 82.6 a.u.
CTAACGAAGGTTTGTTTCGTGGGTGACAAGCCAAGT: 64.8 a.u.
TGCGCAACAACTTTTCACGTGACATTATGTCTAGAA: 4170 a.u.
GGCTTTCTAAGTGAGCTCGTGCCAGCACAATTAATA: 123 a.u.
TGATACAAGTCGTCGTCCGTGACGAAGGATCAGGAA: 91 a.u.
TTTCTTCGTCTTCGTCCCGTGAGTCCGGACTCAGAA: 117 a.u.
TGCGCAATGGAGAAACACGGGTGGCATAGGTCTGCG: 72.3 a.u.
CGTCCTAGCGATTGACGCGTGGGTGCCATGAGGAAG: 75.9 a.u.
ACCCAACAATTAAAATCCGTGATGGTTTAATGGTCA: 128 a.u.
TTTGTGTGCTACCTGCTCGTGACGGCGGTCTTTTTG: 178 a.u.
CTTTCCCGATCTTGACTGGTGGGTGTAGCACATTTG: 73.3 a.u.
AGGGTAACATACCATCACGTGCAAACCAGGATAATT: 4000 a.u.
GTCTTGTCTCATTGTGCGGTGGGTGTCCCCACTTCA: 82.6 a.u.
AAATTACTAAGTTGTTAGGTGGGTGACGCCGTATGA: 75.6 a.u.
TTCCACCGAATTTCCCACCTGATAATATCTGATAAC: 107 a.u.
AGTAAGAACAATACCCACGTGCTTTTCAATGTACAA: 1960 a.u.
GTCTTGTCTCATTTTCACGTGTATTTCCCCACTTCA: 717 a.u.
CTAACGAAGGTTTGCAAAGTGGGTGACAAGCCAAGT: 72 a.u.
TAAGGAAGGATATGGCACACGCTTGTGTTCAAGAAT: 71 a.u.

Study 5
Target: Histone acetyltransferase KAT6A, winged helix 2, GST fusion (KAT6A, Homo sapiens, UniProt Q92794, residues 85-181)
Technique: protein binding microarray
Form: double-stranded DNA, one strand shown
Sample: in vitro
Tested at: not given
Notes: 8-mer, flanks averaged, mean of 2 arrays, mostly near background
Relative to: not given
Direction: higher = stronger binding
Quantity: E-score
Target sequence (chain): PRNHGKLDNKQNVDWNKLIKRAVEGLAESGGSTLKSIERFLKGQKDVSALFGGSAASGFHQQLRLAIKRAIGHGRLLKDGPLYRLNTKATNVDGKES
CCCCGCCC: 0.223
ACTATCCG: 0.0912
CGCTCGTA: -0.0883
AAGAATTC: 0.0208
CTCTATTA: -0.0808
CATAACGA: -0.132
GCTTAAGA: 0.0254
CCTCTTGC: 0.0238
CTAAGGAA: 0.0132
CGTTCTTC: -0.00684
ATATGCCG: 0.101
ACAACAGA: -0.000905
AAAGAGTT: -0.0959
GGTATAAC: -0.145
ACGCTCAA: -0.0298
ACCTTTAA: -0.0138
AATATTTG: 0.0951
GATAGACC: -0.0629
ATAGTGGG: -0.0978
